Measurements pooled from the literature.
Numbers after ± are the reported error.

`Cn1c(=O)ccc2ccc(F)c(CCNC[C@H]3CN(c4ncc5c(n4)NC(=O)CO5)C(=O)O3)c21` has a solubility of 250 µM (aqueous buffer).
With `CC(C)(C)C(=O)NNCc1ccccc1` the solubility was 452 µM (PBS; pH 7.4, 25 °C, 2% DMSO).
The solubility of `NC(=O)c1cc(-c2ccsc2)ccc1OCCc1cccc(F)c1` is reported as less than 12 µM (PBS; 30 (unit not given), pH 7.4).
The solubility of `Cc1cccc(C2(C(=O)N3CCC4(CC3)CC(CNS(=O)(=O)N(C)C)CCO4)CCCC2)c1` (centres unmarked) is reported as 140 µM (pH 7.4).
For `COc1cc(Nc2ncc(F)c(Nc3ccc4c(n3)NC(=O)C(C)(C)O4)n2)cc(OC)c1OC`, the solubility was 12.1 µM (HEPES buffer; 3 h, pH 7.4, 0.1% DMSO).
The solubility of `CC1(C(=O)N2CCC3(CC2)CC(CNS(C)(=O)=O)CCO3)CCCC1` (centres unmarked) is reported as 110 µM (pH 7.4).
For `CC[C@H](C)[C@H](NC(=O)[C@H](CC(=O)O)NC(=O)[C@H](CCCCN)NC(=O)[C@H](CC(C)C)NC(=O)[C@H](CC(N)=O)NC(=O)[C@@H](NC(=O)[C@H](Cc1ccc(O)cc1)NC(=O)[C@H](CO)NC(=O)[C@H](CCC(N)=O)NC(=O)[C@H](CCC(=O)O)NC(=O)[C@H](CC(C)C)NC(=O)[C@H](CCCCN)NC(=O)[C@H](CCCCN)NC(=O)[C@@H](NC(=O)[C@H](C)NC(=O)[C@H](CCC(=O)O)NC(=O)[C@H](CCC(=O)O)NC(=O)[C@H](CC(C)C)NC(=O)[C@H](CCCCN)NC(=O)[C@H](CCCCN)NC(=O)[C@H](CCSC)NC(=O)[C@H](CCC(=O)O)NC(=O)[C@H](CC(=O)O)NC(=O)[C@H](CCC(N)=O)NC(=O)[C@H](CC(C)C)NC(=O)[C@H](CC(=O)O)NC(=O)[C@H](CC(C)C)NC(=O)[C@H](Cc1ccccc1)NC(=O)[C@@H](NC(=O)[C@@H](NC(=O)[C@H](CC(N)=O)NC(=O)[C@@H](NC(=O)[C@H](Cc1ccc(O)cc1)NC(=O)[C@H](CC(=O)O)NC(=O)[C@H](CC(C)C)NC(=O)[C@@H](N)CO)[C@@H](C)CC)C(C)C)[C@@H](C)O)[C@@H](C)CC)[C@@H](C)CC)C(=O)O`, the solubility was 219 ± 14 µM (PBS; pH 7.2).
`NC(=O)c1cccc2c1O/C(=C\c1ccc(C(=O)NCCc3nc4ccccc4[nH]3)s1)C2=O` gave a solubility of greater than 60 µg/mL (saturation solubility; 24 h, pH 5.0, 25 °C).
`C#Cc1ccc2c(c1)C(c1ccccn1)=NCc1c(-c3cnco3)ncn1-2` gave a solubility of 3260 µg/mL (thermodynamic equilibrium, UV; isopropanol; 24 h, 25 °C).
With `CC(C)N(Cc1ccccc1)C(=O)C(C)(C)C` the solubility was 325 µM (PBS; 2 h, pH 7.4, 25 °C, 2% DMSO).
With `CC1=C(C)/C(=C/c2cc(Cc3ccc(OC(F)(F)F)cc3)c(C)[nH]2)N=C1c1ccc[nH]1.Cl` the solubility was 38.6 µM (potassium phosphate buffer; 1.5 h, pH 7.4, room temperature, 100 mM buffer).
For `FC(F)(F)[C@@]1(c2ccccc2)COC[C@@H](c2cccnc2)N1`, the solubility was less than 4 µM (shake-flask, LC-HRMS; aqueous buffer; 16 h, pH 6.8).
`Cc1ccc(C2(C(=O)N3CCC4(CC3)CC(CNS(C)(=O)=O)CCO4)CCCC2)cc1` (centres unmarked) has a solubility of 160 µM (pH 7.4).
For `COC1=CC(c2ccc[nH]2)=N/C1=C\c1[nH]c(Cc2ccc(OC)cc2)cc1Cc1ccc(OC)cc1.Cl`, the solubility was less than 3.13 µM (potassium phosphate buffer; 1.5 h, pH 7.4, room temperature, 100 mM buffer).
The solubility of `COc1ccc(-c2oc3cc(OC)cc(OC)c3c(=O)c2OC)cc1` is reported as 6250 ± 69 ppm (HPLC; ethanol:butylene glycol 100:0).
`O=C(NCCCNc1nc(Nc2cccc(NC(=O)N3CCCC3)c2)ncc1I)c1cccs1` gave a solubility of less than 1 µg/mL (aqueous buffer; 24 h, pH 7.4, 37 °C).
With `COc1ccc(-c2cccc(Nc3cc(=O)n(O)c(=O)n3C)c2)cc1` the solubility was 32.9 ± 0.92 µM (aqueous buffer; 2 (unit not given), pH 7.2).
The solubility of `Cc1nc([C@@](C)(CC2CC2)NC(=O)c2cc(OCC(F)(F)F)c(C3CC3)cn2)no1` is reported as 4.2 ± 0.1 µg/mL (LYSA).
`COc1cc2c(cc1NC(=O)c1ccc(C(C)(C)C)cc1)CCCCN2` gave a solubility of 6 µM (pH 7.4).
The solubility of `CC(C)(N)CNC(=O)C[C@@H]1CCC[C@]2(C1)OOC1(O2)C2CC3CC(C2)CC1C3` (some centres unmarked) is reported as 429 µM (pH 7.4).
With `CC[C@@H](C)[C@H]1NC(=O)[C@@H]2CCCN2C(=O)[C@H](CO)NC(=O)[C@H](CC(C)C)NC(=O)[C@H](C(C)C)NC(=O)CN(C)C(=O)[C@@H](Cc2ccc(O)cc2)NC(=O)[C@@H](Cc2ccc(O)cc2)NC(=O)CSC[C@@H](C(=O)O)NC(=O)[C@@H](CC(C)C)NC1=O` the solubility was 813 µM (HBSS; pH 7.4).
The solubility of `Clc1ccc([C@H]2COC[C@@H](c3cccnc3)N2)cc1` is reported as less than 4 µM (shake-flask, LC-HRMS; aqueous buffer; 16 h, pH 6.8).
With `COC1=CC(c2ccc[nH]2)=N/C1=C\c1cc(Cc2ccc(C(F)(F)F)cc2)c(C)[nH]1.Cl` the solubility was 20.9 µM (potassium phosphate buffer; 1.5 h, pH 7.4, room temperature, 100 mM buffer).

Some of these lines once more:
`C#Cc1ccc2c(c1)C(c1ccccn1)=NCc1c(-c3cnco3)ncn1-2` gave a solubility of 3260 µg/mL (thermodynamic equilibrium, UV; isopropanol; 24 h, 25 °C).
With `CC(C)N(Cc1ccccc1)C(=O)C(C)(C)C` the solubility was 325 µM (PBS; 2 h, pH 7.4, 25 °C, 2% DMSO).
